Measurements pooled from the literature.
Lines come from different studies, so protocols differ. ± gives the spread as reported.

Structure (SMILES)	assay	test system	setting	scale	endpoint	result
COC(=O)c1ccc2c(c1)NC(=O)/C2=C(\Nc1ccc2c(c1)CCN2C(=O)CN1CCOCC1)c1ccccc1		beagle dog, plasma	intravenous, 2 mg/kg		AUC(0-t)	1010 ng·h/mL
CC(C)(Sc1ccncc1-c1ccc(C#N)c2ccccc12)C(=O)OC1OC(C(=O)O)C(O)C(O)C1O (stereo not drawn)		plasma	oral, 15 mg, mild renal impairment, fasted		terminal half-life	10.6 h
NC(=O)CN1CCNC(=O)c2cccc(n2)C(=O)NCCN(CC(N)=O)CCN(CC(N)=O)CC1	potentiometric titration	water, 0.1 M KNO3	25.0 °C, complex species LPb, together with: Pb(NO3)2		log β (Pb2+ complex stability)	9.16
C#CCOc1ccc(/C=C2\SC(=O)N(CC(=O)NCc3ccccc3)C2=O)cc1	inverse Kirkwood-Buff integrals	binary solvent mixture	298.15 K, mole fraction x1 0.45		Kirkwood-Buff integral G2,3	-368 cm³/mol
CC(C)(O)c1ncc([S@](N)(=O)=NC(=O)Nc2c3c(cc4c2CCC4)CCC3)s1		healthy human, fasted	oral, 10 mg single dose, capsule formulation		AUC(0-last)/dose	944 ng·h/mL/mg
Cn1c(=O)oc2ccc(-c3ccc(CC(C#N)NC(=O)C4CNCCCO4)c(F)c3)cc21 (stereo not drawn)		human	oral, 20 mg once daily, TEAE, multiple ascending dose		bilirubin increased incidence	0%
CC12N3Cc4c(c(OCCCS(=O)(=O)[O-])c5ccccc5c4OCCCS(=O)(=O)[O-])CN1C(=O)N1CN4C(=O)N5CN6C(=O)N7Cc8c(c(OCCCS(=O)(=O)[O-])c9ccccc9c8OCCCS(=O)(=O)[O-])CN8C(=O)N(CN9C(=O)N(CN(C3=O)C12C)C4C95)C6(C)C87C.[Na+].[Na+].[Na+].[Na+] (stereo not drawn)			pD 7.4, together with: camptothecin		phase solubility slope	0.1 ± 0.0051
C=C(c1cc(F)c(C(=O)O)c(F)c1)c1cc2c(cc1C)C(C)(C)CCC2(C)C		Sprague-Dawley rat, male, plasma	oral, 100 mg/kg, 3 h, sesame oil vehicle		HDL level	84 ± 13.6 mg/dL
COc1ccc2cc(-c3ccc(-c4ccc(C)cn4)nc3)oc2c1		MeCN	together with: quinine bisulfate reference		fluorescence quantum yield	0.91
CC(C)[C@H](NC(=O)[C@@H]1CCCN1C(=O)[C@H](CCCNC(=N)N)NC(=O)[C@H](CS)NC(=O)[C@H](Cc1c[nH]c2ccccc12)NC(=O)[C@H](CCCNC(=N)N)NC(=O)[C@@H](Cc1ccccc1)NC(=O)[C@H](Cc1c[nH]cn1)NC(=O)[C@H](CCC(=O)O)NC(=O)[C@H](CS)NC(=O)[C@H](CS)NC(=O)[C@@H]1CC(=O)N[C@@H](CCCNC(=N)N)C(=O)NCC(=O)N[C@@H](CC(=O)O)C(=O)N[C@H](Cc2ccc(O)cc2)C(=O)N1)C(N)=O [technetium-99m labelled]		C57 mouse, female, B16/F1 melanoma, bone	intravenous, 0.037 MBq, 4 h		tissue uptake	0.59 ± 0.18 %ID/g
Cc1ncc2c(n1)CN(C(=O)Nc1nc(-c3cccs3)ccc1N)C2		male beagle dog, plasma	oral, 60 mg/kg, multiple doses, once daily		AUC	13000 ng·h/mL
CCCC[C@@H]1NC(=O)[C@@H](NC(=O)[C@H](CCC(=O)O)NC(=O)CNC(=O)CN2CCN(CC(=O)O)CCN(CC(=O)O)CCN(CC(=O)O)CC2)CCCCNC(=O)C[C@@H](C(N)=O)NC(=O)[C@H](C(C)C)NC(=O)[C@@H]2CCCN2C(=O)[C@H](CCCNC(=N)N)NC(=O)CNC(=O)[C@H](Cc2c[nH]c3ccccc23)NC(=O)[C@H](CCCNC(=N)N)NC(=O)[C@@H](Cc2ccccc2)NC(=O)[C@H](Cc2c[nH]cn2)NC(=O)[C@H](CCC(=O)O)NC1=O [gallium-67 labelled]		C57 mice, B16/F1 flank melanoma, stomach	intravenous, 2 h, together with: blocking peptide 10 µg		tissue uptake	0.06 ± 0.05 %ID/g
CC(C)NC(=O)N1CC=C(c2cc3c(Nc4ccc5scnc5c4)ncnc3s2)C1		BALB/c mouse, plasma	oral, 10 mg/kg, 30 min		concentration	79.5 ng/mL
OC1(C(F)(F)F)CCN(c2nc(Nc3ccnc(C(F)(F)F)c3)nc(-c3cccc(C(F)(F)F)n3)n2)C1 (stereo not drawn)		monkey, both sexes	oral, 1 mg/kg daily for 14 days	reference: day 14 over day 1	AUC(0-24h) accumulation ratio	5.4
Cc1ccc(OCC(=O)O)cc1		Sprague-Dawley rat, female, plasma	oral gavage, 30 mg/kg of parent drug		Tmax	0.81 h

For quick reference, copied from above:
Structure (SMILES)	assay	test system	setting	scale	endpoint	result
C=C(c1cc(F)c(C(=O)O)c(F)c1)c1cc2c(cc1C)C(C)(C)CCC2(C)C		Sprague-Dawley rat, male, plasma	oral, 100 mg/kg, 3 h, sesame oil vehicle		HDL level	84 ± 13.6 mg/dL
